Published values gathered from unrelated publications.
Each line is one published result; not all experiments were run side by side. Numbers after ± are the reported error.
CPL: CPL (Toxoplasma gondii, UniProt Q6DMN0)
AR: Androgen receptor (AR, Homo sapiens, UniProt P10275)
Sequence of UniProt P10275 (whole entry, looked up): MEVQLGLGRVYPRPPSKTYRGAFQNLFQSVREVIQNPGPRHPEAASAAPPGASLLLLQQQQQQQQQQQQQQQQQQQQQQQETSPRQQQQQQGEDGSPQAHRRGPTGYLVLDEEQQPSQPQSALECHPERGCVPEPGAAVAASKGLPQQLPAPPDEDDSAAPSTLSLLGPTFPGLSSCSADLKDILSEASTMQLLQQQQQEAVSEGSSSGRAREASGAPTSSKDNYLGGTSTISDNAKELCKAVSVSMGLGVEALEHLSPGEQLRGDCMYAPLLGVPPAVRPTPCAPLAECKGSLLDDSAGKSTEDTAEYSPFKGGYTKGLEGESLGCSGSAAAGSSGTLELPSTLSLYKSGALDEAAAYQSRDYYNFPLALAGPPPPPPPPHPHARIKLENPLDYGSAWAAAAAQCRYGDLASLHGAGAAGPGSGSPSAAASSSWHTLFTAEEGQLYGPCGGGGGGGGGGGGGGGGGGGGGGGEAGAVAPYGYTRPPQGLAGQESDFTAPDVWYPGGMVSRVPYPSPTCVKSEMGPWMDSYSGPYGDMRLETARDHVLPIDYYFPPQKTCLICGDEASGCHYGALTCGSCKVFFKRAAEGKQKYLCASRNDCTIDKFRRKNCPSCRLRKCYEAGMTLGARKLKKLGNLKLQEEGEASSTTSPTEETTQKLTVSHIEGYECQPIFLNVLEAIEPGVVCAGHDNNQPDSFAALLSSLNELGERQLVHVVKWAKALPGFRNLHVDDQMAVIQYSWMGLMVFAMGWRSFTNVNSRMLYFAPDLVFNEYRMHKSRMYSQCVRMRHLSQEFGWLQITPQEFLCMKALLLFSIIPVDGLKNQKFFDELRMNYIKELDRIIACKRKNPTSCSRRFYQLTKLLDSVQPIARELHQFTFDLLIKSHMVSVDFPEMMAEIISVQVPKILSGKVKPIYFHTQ
Sequence of UniProt P09923 (whole entry, looked up): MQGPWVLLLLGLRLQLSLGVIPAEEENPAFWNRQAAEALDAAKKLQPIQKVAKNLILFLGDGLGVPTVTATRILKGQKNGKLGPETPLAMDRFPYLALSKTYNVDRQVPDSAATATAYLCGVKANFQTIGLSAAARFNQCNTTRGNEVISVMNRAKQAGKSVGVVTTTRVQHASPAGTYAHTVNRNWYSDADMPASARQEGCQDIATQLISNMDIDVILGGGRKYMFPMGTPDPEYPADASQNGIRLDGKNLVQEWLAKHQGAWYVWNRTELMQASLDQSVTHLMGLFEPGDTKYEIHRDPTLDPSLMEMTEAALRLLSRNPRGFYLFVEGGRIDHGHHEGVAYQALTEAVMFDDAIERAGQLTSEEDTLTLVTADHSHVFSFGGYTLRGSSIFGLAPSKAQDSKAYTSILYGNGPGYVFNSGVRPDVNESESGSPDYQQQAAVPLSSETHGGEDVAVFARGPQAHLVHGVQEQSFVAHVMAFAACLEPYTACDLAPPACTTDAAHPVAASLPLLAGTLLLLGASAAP
Sequence of UniProt Q15910 (whole entry, looked up): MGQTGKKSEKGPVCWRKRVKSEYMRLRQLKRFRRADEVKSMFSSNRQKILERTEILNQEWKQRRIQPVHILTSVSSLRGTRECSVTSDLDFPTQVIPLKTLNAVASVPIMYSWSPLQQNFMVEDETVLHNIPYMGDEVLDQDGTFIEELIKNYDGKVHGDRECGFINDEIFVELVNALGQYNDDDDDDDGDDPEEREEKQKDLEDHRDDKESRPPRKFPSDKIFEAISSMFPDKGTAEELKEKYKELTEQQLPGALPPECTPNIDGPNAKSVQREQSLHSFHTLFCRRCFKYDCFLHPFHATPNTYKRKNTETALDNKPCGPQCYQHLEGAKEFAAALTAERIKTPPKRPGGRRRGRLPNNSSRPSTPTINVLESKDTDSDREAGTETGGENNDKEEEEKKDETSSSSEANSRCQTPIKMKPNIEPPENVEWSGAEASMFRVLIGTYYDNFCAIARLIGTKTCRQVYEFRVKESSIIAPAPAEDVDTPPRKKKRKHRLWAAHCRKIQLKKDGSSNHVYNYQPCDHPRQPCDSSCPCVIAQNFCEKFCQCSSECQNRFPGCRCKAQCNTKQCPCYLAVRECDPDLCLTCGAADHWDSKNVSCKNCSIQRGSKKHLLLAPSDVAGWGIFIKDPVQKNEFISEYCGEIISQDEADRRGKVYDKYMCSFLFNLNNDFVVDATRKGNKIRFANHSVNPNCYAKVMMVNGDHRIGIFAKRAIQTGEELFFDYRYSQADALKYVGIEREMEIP
Sequence of UniProt P32247 (whole entry, looked up): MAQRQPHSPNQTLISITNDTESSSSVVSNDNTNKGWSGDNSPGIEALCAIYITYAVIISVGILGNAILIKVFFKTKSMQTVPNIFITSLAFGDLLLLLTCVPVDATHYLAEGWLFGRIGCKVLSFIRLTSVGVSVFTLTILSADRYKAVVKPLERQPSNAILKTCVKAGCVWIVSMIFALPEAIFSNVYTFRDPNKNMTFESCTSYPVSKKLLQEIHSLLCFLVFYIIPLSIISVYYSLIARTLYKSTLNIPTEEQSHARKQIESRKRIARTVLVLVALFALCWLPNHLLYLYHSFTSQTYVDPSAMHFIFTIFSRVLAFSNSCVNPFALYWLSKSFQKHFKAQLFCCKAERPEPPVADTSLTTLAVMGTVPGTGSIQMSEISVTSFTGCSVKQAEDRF
Sequence of UniProt O00748 (whole entry, looked up): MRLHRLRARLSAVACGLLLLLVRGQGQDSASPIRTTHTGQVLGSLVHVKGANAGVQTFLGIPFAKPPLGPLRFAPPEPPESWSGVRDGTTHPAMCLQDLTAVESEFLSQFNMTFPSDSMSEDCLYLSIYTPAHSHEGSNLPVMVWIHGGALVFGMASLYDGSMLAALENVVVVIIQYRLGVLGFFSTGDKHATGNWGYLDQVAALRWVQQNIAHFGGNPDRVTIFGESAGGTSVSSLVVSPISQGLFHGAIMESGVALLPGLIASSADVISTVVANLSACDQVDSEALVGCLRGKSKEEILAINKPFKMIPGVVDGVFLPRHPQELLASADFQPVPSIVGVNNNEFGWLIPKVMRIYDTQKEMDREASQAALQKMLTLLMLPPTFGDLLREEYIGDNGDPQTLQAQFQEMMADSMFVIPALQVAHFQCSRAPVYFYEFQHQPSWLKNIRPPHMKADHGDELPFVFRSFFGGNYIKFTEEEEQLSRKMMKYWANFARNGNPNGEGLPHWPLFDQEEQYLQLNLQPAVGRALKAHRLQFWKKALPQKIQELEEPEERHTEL
Sequence of UniProt P35354 (whole entry, looked up): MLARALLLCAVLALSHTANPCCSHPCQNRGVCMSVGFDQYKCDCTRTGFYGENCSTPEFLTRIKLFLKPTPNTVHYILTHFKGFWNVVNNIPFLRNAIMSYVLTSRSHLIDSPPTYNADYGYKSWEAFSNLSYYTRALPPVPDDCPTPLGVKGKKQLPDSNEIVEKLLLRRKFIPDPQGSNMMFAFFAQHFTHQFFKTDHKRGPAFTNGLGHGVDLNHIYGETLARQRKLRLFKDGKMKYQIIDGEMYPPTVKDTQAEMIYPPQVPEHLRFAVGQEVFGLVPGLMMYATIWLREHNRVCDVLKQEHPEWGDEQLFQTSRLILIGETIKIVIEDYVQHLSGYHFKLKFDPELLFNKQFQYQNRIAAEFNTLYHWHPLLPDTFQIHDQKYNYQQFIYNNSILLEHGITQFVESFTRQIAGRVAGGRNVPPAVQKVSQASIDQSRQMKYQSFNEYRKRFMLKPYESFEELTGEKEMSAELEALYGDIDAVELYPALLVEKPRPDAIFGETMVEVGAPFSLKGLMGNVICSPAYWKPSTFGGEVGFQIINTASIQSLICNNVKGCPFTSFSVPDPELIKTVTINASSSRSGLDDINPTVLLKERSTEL
Sequence of UniProt P29353 (whole entry, looked up): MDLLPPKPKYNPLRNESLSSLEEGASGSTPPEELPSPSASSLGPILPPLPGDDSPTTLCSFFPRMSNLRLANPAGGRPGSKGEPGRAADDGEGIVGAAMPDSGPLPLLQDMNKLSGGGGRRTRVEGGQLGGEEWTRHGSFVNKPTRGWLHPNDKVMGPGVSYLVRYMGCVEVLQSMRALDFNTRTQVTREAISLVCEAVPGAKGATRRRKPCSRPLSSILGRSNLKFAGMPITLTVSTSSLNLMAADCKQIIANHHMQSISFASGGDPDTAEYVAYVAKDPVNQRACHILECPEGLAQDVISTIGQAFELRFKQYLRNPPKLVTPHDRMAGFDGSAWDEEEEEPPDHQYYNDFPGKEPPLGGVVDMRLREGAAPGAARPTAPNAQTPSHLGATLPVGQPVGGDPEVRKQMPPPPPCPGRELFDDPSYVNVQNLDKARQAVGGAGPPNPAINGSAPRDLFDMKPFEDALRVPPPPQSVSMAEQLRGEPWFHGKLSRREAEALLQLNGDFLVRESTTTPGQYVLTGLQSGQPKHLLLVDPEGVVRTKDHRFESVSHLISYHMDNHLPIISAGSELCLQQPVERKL
Sequence of UniProt P07237 (whole entry, looked up): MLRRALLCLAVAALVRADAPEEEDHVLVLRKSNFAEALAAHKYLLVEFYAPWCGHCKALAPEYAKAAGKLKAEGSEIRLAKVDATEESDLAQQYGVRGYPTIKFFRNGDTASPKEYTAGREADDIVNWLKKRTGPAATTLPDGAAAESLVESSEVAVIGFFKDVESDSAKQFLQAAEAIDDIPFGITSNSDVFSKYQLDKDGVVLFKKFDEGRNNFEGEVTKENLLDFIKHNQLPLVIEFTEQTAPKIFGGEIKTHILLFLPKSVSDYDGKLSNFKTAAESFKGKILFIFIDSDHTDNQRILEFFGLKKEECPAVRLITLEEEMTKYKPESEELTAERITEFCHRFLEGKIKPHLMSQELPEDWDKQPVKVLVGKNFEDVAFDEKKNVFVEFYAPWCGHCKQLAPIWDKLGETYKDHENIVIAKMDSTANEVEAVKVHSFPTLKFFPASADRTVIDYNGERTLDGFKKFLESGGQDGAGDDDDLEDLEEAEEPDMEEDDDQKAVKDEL
Sequence of UniProt P62937 (whole entry, looked up): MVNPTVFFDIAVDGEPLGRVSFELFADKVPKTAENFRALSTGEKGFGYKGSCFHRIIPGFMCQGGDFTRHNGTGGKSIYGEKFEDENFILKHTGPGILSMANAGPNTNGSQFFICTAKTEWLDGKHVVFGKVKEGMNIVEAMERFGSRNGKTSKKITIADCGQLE

SMILES	target	assay	test system	conditions	IC50 [nM]
CCCCN(Cc1ccc(F)cc1)c1nc(C#N)nc(N2CCOCC2)n1	CPL	enzyme activity, inhibitor, Z-L-R-AMC hydrolysis fluorescence			117
C=CCCNC(=O)[C@H](CC(C)C)NC(=O)CN(CC=C)C(=O)[C@H](CCC(N)=O)NC(=O)[C@H](Cc1ccc(OP(=O)(O)O)cc1)NC(C)=O	SHC-transforming protein 1, SH2 (Homo sapiens, UniProt P29353)	ligand displacement, FP			14000
CC[C@@H]1NC(=O)[C@H]([C@H](O)[C@H](C)Cc2nc3ccc(-c4nc5ccccc5s4)cc3[nH]2)N(C)C(=O)[C@H](C(C)C)N(C)C(=O)[C@H](CC(C)C)N(C)C(=O)[C@H](CC(C)C)N(C)C(=O)[C@@H](C)NC(=O)[C@H](C)NC(=O)[C@H](CC(C)C)N(C)C(=O)[C@H](C(C)C)NC(=O)[C@H](CC(C)C)N(C)C(=O)CN(C)C1=O	PPIA (Homo sapiens, UniProt P62937)	enzyme activity, inhibitor			16.6
CCOc1cc(/C=c2\sc3n(c2=O)C(c2ccccc2OC)C(C(C)=O)=C(C)N=3)ccc1O (stereo not shown)	Serine/threonine protein kinase UL97, 231-280; with cyclin H (Human herpesvirus 5, UniProt P16788)	protein-protein interaction, inhibitor, NanoBiT	293T	UL97 fragment 231-280, with: cyclin H	5300
Cc1ccc(Oc2ccc(Nc3ccccc3C(=O)O)cc2)cc1	AR	reporter gene, antagonist, MMTV-Luc reporter	MDA-kb2	20 h, with: 0.2 nM DHT (EC50)	400 ± 200
Fc1ncc(C2CC3CCC2N3)cc1-c1ccnc(Cl)c1 (racemic)	Neuronal acetylcholine receptor; alpha4/beta2 (Rattus norvegicus, UniProt P09483+P12390)	ion current, antagonist, two-electrode voltage clamp		oocytes	2000
C=CCOCC=C	Cytochrome P450 2E1 (CYP2E1, Homo sapiens, UniProt P05181)	enzyme activity, inhibitor		1 h, pH 7.4	6300
COc1ccc(N=Nc2cccc(NC(=O)CCCCCCC(=O)NO)c2)cc1	HDAC6 (Homo sapiens, UniProt Q9UBN7)	enzyme activity, inhibitor		trans isomer	394 ± 83
CCCCCCc1ccc(Nc2ccccc2C(=O)O)cc1	AR	reporter gene, antagonist, MMTV-Luc reporter	MDA-kb2	20 h, with: 0.2 nM DHT (EC50)	7200 ± 3900
COc1ccc(F)cc1S(=O)(=O)Nc1cnc2c(c1)C(=O)NCCO2	Intestinal-type alkaline phosphatase (Homo sapiens, UniProt P09923)	enzyme activity, inhibitor, absorbance		pH 7.5	1560
COc1ccccc1CN(CCC(C)C)c1nc(C#N)nc(N2CCOCC2)n1	CPL	enzyme activity, inhibitor, Z-L-R-AMC hydrolysis fluorescence			970
C=CC[C@](C)(NC(=O)[C@H](CC(C)C)NC(=O)[C@H](CCCCN)NC(=O)[C@H](CC(C)C)NC(=O)[C@](C)(CC=C)NC(=O)[C@H](Cc1ccccc1)NC(=O)[C@H](Cc1ccc(O)cc1)NC(=O)[C@H](C)NC(=O)[C@@H](N)[C@@H](C)O)C(=O)NCC(=O)N[C@@H](CCCNC(=N)N)C(=O)N[C@@H](Cc1c[nH]c2ccccc12)C(N)=O	Gag-Pol polyprotein, integrase (gag-pol, Human immunodeficiency virus type 1 group M subtype B, UniProt P04585)	integrase strand transfer, inhibitor			> 111000
N#Cc1c(C(F)(F)F)cc(-c2ccc(Cl)cc2)nc1SCC(=O)Nc1ccccn1	Taar1 (Mus musculus, UniProt Q923Y8)				3070 ± 360
CC(C)C[C@H](NC(=O)OCc1ccccc1)C(=O)N[C@@H](C[C@H]1CCNC1=O)C(=O)C(=O)NC1CC1	Genome polyprotein, 3C protease (Human enterovirus D68, UniProt Q68T42)	3C protease activity, inhibitor, FRET			100 ± 10
CC(=O)N[C@H]1CSC(=O)[C@H](Cc2ccccc2)NC(=O)[C@H](CC(C)C)NC(=O)[C@H](CO)NC(=O)[C@H](CO)NC1=O	Accessory gene regulator protein C (Staphylococcus aureus, UniProt O33590)				0.616
CC[C@H](C)[C@H](NC(=O)[C@H](CO)NC(=O)[C@H](Cc1ccc(O)cc1)NC(=O)[C@H](CC(=O)O)NC(=O)[C@H](CO)NC(=O)[C@@H](NC(=O)[C@H](Cc1ccccc1)NC(=O)[C@@H](NC(=O)CNC(=O)[C@@H]1CCCN1C(=O)[C@H](C)NC(=O)[C@@H](N)Cc1ccc(O)cc1)[C@@H](C)O)[C@@H](C)CC)C(=O)N[C@@H](C)C(=O)N[C@@H](CCSC)C(=O)N[C@@H](CC(=O)O)C(=O)N[C@@H](CCCCN)C(=O)N[C@H](C(=O)N[C@@H](CCCNC(=N)N)C(=O)N[C@@H](CCC(N)=O)C(=O)N[C@@H](CCC(N)=O)C(=O)N[C@@H](CC(=O)O)C(=O)N[C@@H](Cc1ccccc1)C(=O)N[C@H](C(=O)N[C@@H](CC(N)=O)C(=O)N[C@@H](Cc1c[nH]c2ccccc12)C(=O)N[C@@H](CC(C)C)C(=O)N[C@@H](CC(C)C)C(=O)N[C@@H](C)C(=O)N[C@@H](CCC(N)=O)C(=O)N[C@@H](CCCNC(=N)N)C(=O)NCC(=O)N[C@@H](CCCCN)C(=O)N[C@@H](CCCCN)C(=O)N[C@@H](CO)C(=O)N[C@@H](CC(=O)O)C(=O)N[C@@H](Cc1c[nH]c2ccccc12)C(=O)N[C@@H](CCCCN)C(=O)N[C@@H](Cc1c[nH]cn1)C(=O)N[C@@H](CC(N)=O)C(=O)N[C@H](C(=O)N[C@H](C(=O)N[C@@H](CCC(N)=O)C(=O)O)[C@@H](C)O)[C@@H](C)CC)C(C)C)[C@@H](C)CC	GIPR (Homo sapiens, UniProt P48546)	ligand displacement in cells, radioligand			7.94

SMILES	target	assay	test system	conditions	IC50 [nM]
CCCCc1ccc(S(=O)(=O)N2CC2C(=O)OC)cc1 (stereo not shown)	P4HB (Homo sapiens, UniProt P07237)	insulin reduction, inhibitor, turbidity			80 to 85
CC[C@@H]1NC(=O)[C@H](CCCNC(=N)N)NC(=O)[C@H](NC(=O)C(C)C)CCNC(=O)c2cc(F)c(c(F)c2)N=Nc2c(F)cc(cc2F)C(=O)NCCNC(=O)[C@@H](Cc2ccccc2)NC1=O	WD repeat-containing protein 5, MLL1 complex (WDR5, Homo sapiens, UniProt P61964)	histone methyltransferase activity		cis PSS at 520 nm	792 ± 259
CC(C)(C)n1ccc(C(=O)N2CCN(c3nc4ccccc4s3)CC2)c1	hh, C-terminal autoprocessing domain (Drosophila melanogaster, UniProt Q02936)	inhibitor, FRET		with: C-H-Y reporter 0.1 µM and cholesterol 1.5 µM	2000
C=CCOC(=O)NCCCC[C@H](NC(=O)[C@H](Cc1ccc(O)cc1)NC(=O)CNC(=O)CNC(=O)[C@@H](NC(=O)[C@H](CO)NC(=O)[C@@H]1CCCN1C(=O)[C@H](C)NC(=O)[C@H](CO)NC(=O)[C@H](CCSC(F)(F)F)NC(=O)[C@H](CCCNC(=N)N)NC(=O)[C@H](C)NC(=O)[C@H](C)NC(=O)[C@H](CCCCN)NC(C)=O)[C@@H](C)O)C(=O)NN	EZH2 (Homo sapiens, UniProt Q15910)	enzyme activity, inhibitor, radiometric			11000
C[C@@H]1CCN(c2nc3ccc(Cl)cc3o2)CCN1S(=O)(=O)c1ccc2c(c1)OCCO2	HCRTR2 (Homo sapiens, UniProt O43614)	calcium signal, antagonist, fluorescence			1780
N=C(N)NN=C1C=C2CC(=NNC(=N)N)C=C2C1	Mycosin-1 (Mycolicibacterium thermoresistibile, UniProt G7CDQ2)	enzyme activity, inhibitor			48000
CC[C@@H]1C(=O)N(C)c2cnc(Nc3ccc(C(=O)NCCCC[C@H](NC(=O)COCCOCCNC(=O)COCCOCCNC(=O)COCCOCCNC(=O)COCCOCCNC(=O)[C@@H](NC(=O)[C@H](CO)NC(=O)[C@H](Cc4cncn4CCCCCCCCc4ccccc4)NC(=O)[C@H](CC(C)C)NC(=O)[C@@H]4CCCN4C(C)=O)[C@@H](C)OP(=O)(O)O)C(N)=O)cc3OC)nc2N1C1CCCC1	CLK2 (Homo sapiens, UniProt P49760)	enzyme activity, inhibitor			60
CN(CCO)c1ccc(/C=C/C(=O)C(c2ccccc2)c2ccccc2)cc1	PTGS2 (Homo sapiens, UniProt P35354)	enzyme activity, inhibitor, ELISA			84700
CC(C)C[C@H]1NC(=O)[C@H](CCCNC(=N)N)NC(=O)[C@H](CCCCN)NC(=O)[C@H](CC(=O)O)NC(=O)[C@H](CCCCN)NC(=O)[C@H](CO)NC1=O	Disintegrin and metalloproteinase domain-containing protein 8 (Homo sapiens, UniProt P78325)	CD23 shedding, inhibitor, ELISA	COS-7, co-transfected with CD23		570 ± 23
CCN(C)C(=O)Oc1ccccc1/C=C1\Cc2cc(OC)c(OC)cc2C1=O	Cocaine esterase (CES2, Homo sapiens, UniProt O00748)	enzyme activity, inhibitor		33 min preincubation, with: fluorescein diacetate	0.56 ± 0.03
O=C(CCCCCCC(=O)Nc1ccc(N=Nc2ccccc2)cc1)NO	HDAC8 (Homo sapiens, UniProt Q9BY41)	enzyme activity, inhibitor		trans isomer	1610 ± 423
COc1cc(-c2nn(C3CCC(N4CCN(C)CC4)CC3)c3ncnc(N)c23)ccc1NC(=O)OCc1ccccc1 (stereo not shown)	ROCK1 (Homo sapiens, UniProt Q13464)	kinase activity, inhibitor		with: ATP 100 µM, MBP substrate	> 20000
CSc1nc(Sc2nnnn2C)c2nnn(Cc3ccccc3Cl)c2n1	KDM1A (Homo sapiens, UniProt O60341)	enzyme activity, inhibitor, fluorescence			80
CSCC[C@H](NC(=O)[C@H](Cc1ccccc1)NC(=O)[C@H](Cc1c[nH]cn1)NC(=O)CNC(=O)[C@@H](NC(=O)[C@H](C)NC(=O)[C@H](Cc1c[nH]c2ccccc12)NC(=O)[C@H](CCC(N)=O)NC(=O)[C@@H]1CCC(=O)N1)C(C)C)C(N)=O	BRS3 (Homo sapiens, UniProt P32247)	human GRPR activity, cell-based			> 3000
C/C=C(\NC(=O)[C@@H]1CSC[C@H]2NC(=O)[C@H]([C@@H](C)CC)NC(=O)[C@H](CC(N)=O)NC(=O)[C@H](Cc3ccc(O)cc3)NC(=O)[C@H](Cc3c[nH]c4ccccc34)NC(=O)[C@H](C)NC(=O)[C@@H](N)CSSC[C@H](NC2=O)C(=O)N[C@@H](CCCNC(=N)N)C(=O)N[C@@H](CC(C)C)C(=O)NCC(=O)N[C@@H](CC(N)=O)C(=O)N[C@@H](CCCCN)C(=O)NCC(=O)N[C@@H](C)C(=O)N[C@@H](Cc2ccc(O)cc2)C(=O)N1)C(=O)N[C@@H](CC(C)C)C(=O)N[C@H]1C(=O)N[C@@H](C(C)C)C(=O)N[C@@H](CCC(=O)O)C(=O)N[C@@H](C)C(=O)N[C@@H](CCSC)C(=O)N2CCC[C@H]2C(=O)N[C@@H](CO)C(=O)N[C@H](C(=O)N[C@@H](CC(N)=O)C(=O)O)CS[C@H]1C	PBP1b (Escherichia coli)	transglycosylase activity, inhibitor		with: lipid II 4 µM	50700 ± 1700

Excerpt of the above:
SMILES	target	assay	test system	conditions	IC50 [nM]
C=CCOC(=O)NCCCC[C@H](NC(=O)[C@H](Cc1ccc(O)cc1)NC(=O)CNC(=O)CNC(=O)[C@@H](NC(=O)[C@H](CO)NC(=O)[C@@H]1CCCN1C(=O)[C@H](C)NC(=O)[C@H](CO)NC(=O)[C@H](CCSC(F)(F)F)NC(=O)[C@H](CCCNC(=N)N)NC(=O)[C@H](C)NC(=O)[C@H](C)NC(=O)[C@H](CCCCN)NC(C)=O)[C@@H](C)O)C(=O)NN	EZH2 (Homo sapiens, UniProt Q15910)	enzyme activity, inhibitor, radiometric			11000
C[C@@H]1CCN(c2nc3ccc(Cl)cc3o2)CCN1S(=O)(=O)c1ccc2c(c1)OCCO2	HCRTR2 (Homo sapiens, UniProt O43614)	calcium signal, antagonist, fluorescence			1780
